Assay results pooled from the literature.
Every numbered part comes from another study and shows a few of its results, in no order. Changes are numbered by the printed parent chain.
Sequence of UniProt P31749 (whole entry, looked up): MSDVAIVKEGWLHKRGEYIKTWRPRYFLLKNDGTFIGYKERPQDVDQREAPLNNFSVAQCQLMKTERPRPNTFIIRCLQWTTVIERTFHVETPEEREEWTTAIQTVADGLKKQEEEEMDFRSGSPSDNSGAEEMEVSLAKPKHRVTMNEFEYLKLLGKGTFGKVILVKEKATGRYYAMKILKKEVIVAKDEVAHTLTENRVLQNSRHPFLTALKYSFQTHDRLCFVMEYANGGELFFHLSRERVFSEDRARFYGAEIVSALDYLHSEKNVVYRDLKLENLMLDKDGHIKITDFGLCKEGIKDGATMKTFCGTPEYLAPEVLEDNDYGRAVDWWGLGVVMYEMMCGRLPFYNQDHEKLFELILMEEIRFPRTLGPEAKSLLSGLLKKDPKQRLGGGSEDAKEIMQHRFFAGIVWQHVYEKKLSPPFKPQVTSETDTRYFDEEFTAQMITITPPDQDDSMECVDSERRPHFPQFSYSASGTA
Sequence of UniProt P27448 (whole entry, looked up): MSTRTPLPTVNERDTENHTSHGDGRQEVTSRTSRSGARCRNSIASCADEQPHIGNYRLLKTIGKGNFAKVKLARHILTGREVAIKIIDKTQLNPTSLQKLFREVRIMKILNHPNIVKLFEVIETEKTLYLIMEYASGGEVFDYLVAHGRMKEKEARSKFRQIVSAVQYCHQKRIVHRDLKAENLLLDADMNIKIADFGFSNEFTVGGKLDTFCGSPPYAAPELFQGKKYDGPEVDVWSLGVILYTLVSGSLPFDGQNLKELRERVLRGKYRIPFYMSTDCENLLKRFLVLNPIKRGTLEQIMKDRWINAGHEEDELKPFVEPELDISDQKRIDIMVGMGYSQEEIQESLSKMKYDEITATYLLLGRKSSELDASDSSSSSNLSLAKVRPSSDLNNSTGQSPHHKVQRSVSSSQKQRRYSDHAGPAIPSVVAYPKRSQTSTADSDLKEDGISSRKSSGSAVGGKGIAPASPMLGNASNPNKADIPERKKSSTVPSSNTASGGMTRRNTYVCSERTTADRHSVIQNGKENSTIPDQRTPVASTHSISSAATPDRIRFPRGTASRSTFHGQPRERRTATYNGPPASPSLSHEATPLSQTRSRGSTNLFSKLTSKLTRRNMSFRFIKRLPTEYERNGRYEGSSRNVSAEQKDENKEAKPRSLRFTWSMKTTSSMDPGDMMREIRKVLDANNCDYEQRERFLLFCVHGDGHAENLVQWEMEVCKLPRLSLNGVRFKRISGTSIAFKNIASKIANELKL
Sequence of UniProt Q8NG66 (whole entry, looked up): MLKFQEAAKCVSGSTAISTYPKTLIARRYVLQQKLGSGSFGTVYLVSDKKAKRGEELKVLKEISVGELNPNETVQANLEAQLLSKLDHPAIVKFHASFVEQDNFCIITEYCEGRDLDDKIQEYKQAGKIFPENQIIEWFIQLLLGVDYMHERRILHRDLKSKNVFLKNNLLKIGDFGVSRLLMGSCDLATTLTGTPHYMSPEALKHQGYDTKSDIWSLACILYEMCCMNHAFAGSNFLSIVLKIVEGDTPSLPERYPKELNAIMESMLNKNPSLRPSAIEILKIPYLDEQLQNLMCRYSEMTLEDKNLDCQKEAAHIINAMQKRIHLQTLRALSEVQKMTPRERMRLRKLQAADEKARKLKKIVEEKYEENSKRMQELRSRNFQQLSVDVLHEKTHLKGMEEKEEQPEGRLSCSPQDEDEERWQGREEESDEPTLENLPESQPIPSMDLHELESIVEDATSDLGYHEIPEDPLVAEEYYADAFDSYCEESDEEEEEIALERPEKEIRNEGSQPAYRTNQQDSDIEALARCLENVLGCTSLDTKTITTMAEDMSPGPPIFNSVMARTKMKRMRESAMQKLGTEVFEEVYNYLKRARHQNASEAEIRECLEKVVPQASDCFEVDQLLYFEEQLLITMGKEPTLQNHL

Set 1 — method: universal PBM; form: double-stranded DNA, one strand shown; medium: in vitro; tested at: not given; reading: higher = stronger binding
Target: Sal-like protein 4, full length isoform B (SALL4, Homo sapiens, UniProt Q9UJQ4-2, residues 1-616)
Notes: 8-mer, flanks averaged, mean of replicates
Construct (chain): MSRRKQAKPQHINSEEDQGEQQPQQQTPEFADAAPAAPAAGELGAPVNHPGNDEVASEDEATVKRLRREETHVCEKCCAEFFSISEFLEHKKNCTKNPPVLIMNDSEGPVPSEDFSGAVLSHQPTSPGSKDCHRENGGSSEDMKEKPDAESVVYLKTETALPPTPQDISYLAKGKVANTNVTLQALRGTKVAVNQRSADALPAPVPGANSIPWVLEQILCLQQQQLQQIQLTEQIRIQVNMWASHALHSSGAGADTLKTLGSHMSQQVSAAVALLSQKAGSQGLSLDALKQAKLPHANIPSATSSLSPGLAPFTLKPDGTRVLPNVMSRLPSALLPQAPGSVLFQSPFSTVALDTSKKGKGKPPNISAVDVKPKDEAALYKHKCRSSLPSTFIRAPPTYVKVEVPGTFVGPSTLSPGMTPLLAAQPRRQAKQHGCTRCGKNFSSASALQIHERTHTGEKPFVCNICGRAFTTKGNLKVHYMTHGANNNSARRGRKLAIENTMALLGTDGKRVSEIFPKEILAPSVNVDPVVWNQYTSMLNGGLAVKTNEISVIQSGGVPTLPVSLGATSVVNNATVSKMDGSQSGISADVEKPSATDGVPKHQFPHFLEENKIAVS
Sequence | E-score
ACATAGTC | 0.2
AACTCCGT | -0.0979
ATACTTCA | 0.247
AGCACTGA | -0.0382
AATCCACA | 0.223
CTGGGATA | 0.0958
CCGCCTGC | -0.302
ACCGGCCT | -0.286

Set 2 — effect on: enzyme activity; mode: inhibitor; tested at: 0.5 µM; baseline: control
Structure (SMILES): N/C(=N\[N+](=O)[O-])N/N=C\c1ccc(-c2cccc([N+](=O)[O-])c2)o1
target | remaining activity
NEK11 (Homo sapiens, UniProt Q8NG66) | 110%
AKT1 (Homo sapiens, UniProt P31749) | 99.7%
MARK3 (Homo sapiens, UniProt P27448) | 107%

Other studies, line by line — CCNB1: CCNB1, cyclin fold, Cln2 fusion (human)
P1: viral docking peptide; TSVRRALFTGGSD; partner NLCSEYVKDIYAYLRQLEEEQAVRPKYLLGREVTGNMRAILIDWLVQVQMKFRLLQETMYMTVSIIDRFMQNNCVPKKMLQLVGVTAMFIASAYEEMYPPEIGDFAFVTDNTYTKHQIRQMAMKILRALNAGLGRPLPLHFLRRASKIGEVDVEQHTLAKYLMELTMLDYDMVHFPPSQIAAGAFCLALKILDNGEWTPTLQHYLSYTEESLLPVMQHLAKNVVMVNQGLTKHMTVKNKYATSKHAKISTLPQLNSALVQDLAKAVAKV
P2: PafA, mature enzyme, eGFP fusion (Elizabethkingia meningoseptica, UniProt Q9KJX5); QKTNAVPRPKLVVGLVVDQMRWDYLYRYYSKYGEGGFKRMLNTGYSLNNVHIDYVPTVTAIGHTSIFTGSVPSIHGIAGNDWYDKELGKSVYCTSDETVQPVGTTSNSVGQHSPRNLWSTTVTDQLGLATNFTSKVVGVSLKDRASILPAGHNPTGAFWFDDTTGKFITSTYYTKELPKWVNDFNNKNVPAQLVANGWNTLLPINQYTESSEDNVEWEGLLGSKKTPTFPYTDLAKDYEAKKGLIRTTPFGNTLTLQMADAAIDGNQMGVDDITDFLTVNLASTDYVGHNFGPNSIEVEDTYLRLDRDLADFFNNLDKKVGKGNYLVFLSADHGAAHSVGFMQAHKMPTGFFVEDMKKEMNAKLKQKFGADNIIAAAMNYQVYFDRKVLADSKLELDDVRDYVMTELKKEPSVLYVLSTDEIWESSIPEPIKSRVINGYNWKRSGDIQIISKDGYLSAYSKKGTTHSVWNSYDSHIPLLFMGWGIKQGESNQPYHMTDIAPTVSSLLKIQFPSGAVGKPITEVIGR
Variant | target | test | system | setting | how to read | quantity | result
P1 G11I | CCNB1 | yeast growth competition, sequencing | yeast | strong parent motif | baseline: not given, higher = stronger binding | normalised enrichment score | 1.87
P2 Y302V | tungstate, free oxyanion | microfluidic competitive inhibition | in vitro, cell-free expressed | not given, derived from inhibition constants, unchanged parent 2230 nM | lower = stronger binding | oxyanion analog dissociation constant | 3.67 µM
P1 T9K | CCNB1 | yeast growth competition, sequencing | yeast | strong parent motif | baseline: not given, higher = stronger binding | normalised enrichment score | 1.2
P2 M258G | tungstate, free oxyanion | microfluidic competitive inhibition | in vitro, cell-free expressed | not given, derived from inhibition constants, unchanged parent 2230 nM | lower = stronger binding | oxyanion analog dissociation constant | 1.36 µM
P1 F8S | CCNB1 | yeast growth competition, sequencing | yeast | strong parent motif | baseline: not given, higher = stronger binding | normalised enrichment score | 0.0236
